{"data": "Measurements from different studies", "HTR1E": "5-hydroxytryptamine receptor 1E (HTR1E, Homo sapiens, UniProt P28566)", "Luciferin 4-monooxygenase": "Luciferin 4-monooxygenase (Photinus pyralis, UniProt P08659)", "note": "± marks the error that the study gave.", "UniProt P28566, sequence (whole entry, looked up)": "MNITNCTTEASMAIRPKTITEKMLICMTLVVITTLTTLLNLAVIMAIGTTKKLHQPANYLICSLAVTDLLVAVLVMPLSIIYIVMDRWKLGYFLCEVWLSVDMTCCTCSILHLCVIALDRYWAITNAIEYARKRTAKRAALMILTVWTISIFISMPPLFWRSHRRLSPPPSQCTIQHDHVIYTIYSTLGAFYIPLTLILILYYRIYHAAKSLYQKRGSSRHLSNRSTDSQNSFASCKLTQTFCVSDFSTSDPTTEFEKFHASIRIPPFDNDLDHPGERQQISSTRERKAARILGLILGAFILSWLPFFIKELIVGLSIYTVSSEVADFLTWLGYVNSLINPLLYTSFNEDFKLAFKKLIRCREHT", "UniProt O60674, sequence (whole entry, unmodified, looked up)": "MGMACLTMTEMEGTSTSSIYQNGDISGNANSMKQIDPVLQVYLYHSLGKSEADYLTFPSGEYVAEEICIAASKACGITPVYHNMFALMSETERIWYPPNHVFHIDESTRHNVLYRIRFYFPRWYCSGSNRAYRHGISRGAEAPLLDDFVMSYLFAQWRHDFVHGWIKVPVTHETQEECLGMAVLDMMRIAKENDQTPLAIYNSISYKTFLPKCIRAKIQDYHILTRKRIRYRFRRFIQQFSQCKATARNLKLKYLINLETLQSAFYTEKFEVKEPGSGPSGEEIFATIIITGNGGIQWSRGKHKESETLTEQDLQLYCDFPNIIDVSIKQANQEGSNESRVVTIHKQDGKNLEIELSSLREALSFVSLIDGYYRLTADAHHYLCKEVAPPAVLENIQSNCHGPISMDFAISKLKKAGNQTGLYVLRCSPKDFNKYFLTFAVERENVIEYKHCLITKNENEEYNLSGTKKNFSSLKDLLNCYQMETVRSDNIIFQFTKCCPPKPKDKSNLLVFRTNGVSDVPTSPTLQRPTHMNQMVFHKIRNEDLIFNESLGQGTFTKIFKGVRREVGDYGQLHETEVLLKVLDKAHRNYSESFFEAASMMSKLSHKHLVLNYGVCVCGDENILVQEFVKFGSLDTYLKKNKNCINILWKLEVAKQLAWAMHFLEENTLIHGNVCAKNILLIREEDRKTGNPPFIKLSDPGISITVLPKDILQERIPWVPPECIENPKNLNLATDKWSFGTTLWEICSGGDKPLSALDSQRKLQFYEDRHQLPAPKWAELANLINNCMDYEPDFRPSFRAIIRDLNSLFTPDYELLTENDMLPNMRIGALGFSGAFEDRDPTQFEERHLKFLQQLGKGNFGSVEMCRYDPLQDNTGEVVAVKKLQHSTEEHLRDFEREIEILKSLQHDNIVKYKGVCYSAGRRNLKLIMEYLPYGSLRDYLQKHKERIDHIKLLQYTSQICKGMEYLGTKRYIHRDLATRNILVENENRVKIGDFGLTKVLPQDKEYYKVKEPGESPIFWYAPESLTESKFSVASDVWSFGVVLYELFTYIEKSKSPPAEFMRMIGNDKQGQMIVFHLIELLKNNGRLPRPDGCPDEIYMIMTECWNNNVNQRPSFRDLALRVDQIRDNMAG", "UniProt Q14145, sequence (whole entry, looked up)": "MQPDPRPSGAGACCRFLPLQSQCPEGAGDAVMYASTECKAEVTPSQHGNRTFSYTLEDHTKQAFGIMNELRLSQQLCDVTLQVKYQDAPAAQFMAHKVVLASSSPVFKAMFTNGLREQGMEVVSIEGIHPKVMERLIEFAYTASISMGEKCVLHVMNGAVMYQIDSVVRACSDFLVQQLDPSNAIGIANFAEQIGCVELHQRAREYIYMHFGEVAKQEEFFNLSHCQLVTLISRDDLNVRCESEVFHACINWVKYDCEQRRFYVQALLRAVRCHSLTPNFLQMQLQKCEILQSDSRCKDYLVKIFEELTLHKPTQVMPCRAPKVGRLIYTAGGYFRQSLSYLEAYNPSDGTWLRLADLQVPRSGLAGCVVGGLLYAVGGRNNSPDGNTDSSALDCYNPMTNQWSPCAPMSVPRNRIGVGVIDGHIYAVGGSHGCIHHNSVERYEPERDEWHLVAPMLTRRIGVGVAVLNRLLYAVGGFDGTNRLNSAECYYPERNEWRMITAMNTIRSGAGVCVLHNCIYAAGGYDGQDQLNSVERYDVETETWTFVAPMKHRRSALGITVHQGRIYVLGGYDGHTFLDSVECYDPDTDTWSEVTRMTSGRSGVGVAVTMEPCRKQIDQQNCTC", "UniProt P23945, sequence (whole entry, looked up)": "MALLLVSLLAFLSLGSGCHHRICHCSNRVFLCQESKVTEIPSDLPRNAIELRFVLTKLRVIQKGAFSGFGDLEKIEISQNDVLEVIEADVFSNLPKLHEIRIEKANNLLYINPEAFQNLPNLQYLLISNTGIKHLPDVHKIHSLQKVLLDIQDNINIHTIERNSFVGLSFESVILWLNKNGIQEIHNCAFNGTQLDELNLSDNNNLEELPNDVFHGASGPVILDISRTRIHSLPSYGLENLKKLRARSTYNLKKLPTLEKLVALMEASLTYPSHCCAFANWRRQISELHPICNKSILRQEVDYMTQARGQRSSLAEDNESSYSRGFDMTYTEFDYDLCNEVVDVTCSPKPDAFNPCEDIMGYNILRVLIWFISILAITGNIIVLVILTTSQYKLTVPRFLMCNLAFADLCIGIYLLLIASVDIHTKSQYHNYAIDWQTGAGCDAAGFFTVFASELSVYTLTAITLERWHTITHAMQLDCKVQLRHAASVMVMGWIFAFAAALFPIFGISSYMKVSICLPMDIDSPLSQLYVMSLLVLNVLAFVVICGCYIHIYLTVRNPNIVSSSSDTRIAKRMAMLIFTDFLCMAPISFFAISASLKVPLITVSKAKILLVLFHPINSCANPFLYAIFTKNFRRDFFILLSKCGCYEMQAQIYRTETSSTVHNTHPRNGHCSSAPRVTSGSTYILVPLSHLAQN", "UniProt P08219, sequence (whole entry, looked up)": "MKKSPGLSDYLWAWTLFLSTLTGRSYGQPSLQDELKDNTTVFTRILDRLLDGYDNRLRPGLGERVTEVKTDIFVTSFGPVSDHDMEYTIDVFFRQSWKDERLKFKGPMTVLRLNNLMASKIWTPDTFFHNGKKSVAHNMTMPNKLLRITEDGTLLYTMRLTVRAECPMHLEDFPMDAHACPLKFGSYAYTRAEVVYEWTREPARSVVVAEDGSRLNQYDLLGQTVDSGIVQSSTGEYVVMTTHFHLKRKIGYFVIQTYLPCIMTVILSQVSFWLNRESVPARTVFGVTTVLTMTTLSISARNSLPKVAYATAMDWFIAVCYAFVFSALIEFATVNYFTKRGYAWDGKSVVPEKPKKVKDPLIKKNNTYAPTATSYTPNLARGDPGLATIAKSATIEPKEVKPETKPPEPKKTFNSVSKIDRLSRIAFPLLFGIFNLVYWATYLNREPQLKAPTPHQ", "UniProt Q8TEQ6, sequence (whole entry, looked up)": "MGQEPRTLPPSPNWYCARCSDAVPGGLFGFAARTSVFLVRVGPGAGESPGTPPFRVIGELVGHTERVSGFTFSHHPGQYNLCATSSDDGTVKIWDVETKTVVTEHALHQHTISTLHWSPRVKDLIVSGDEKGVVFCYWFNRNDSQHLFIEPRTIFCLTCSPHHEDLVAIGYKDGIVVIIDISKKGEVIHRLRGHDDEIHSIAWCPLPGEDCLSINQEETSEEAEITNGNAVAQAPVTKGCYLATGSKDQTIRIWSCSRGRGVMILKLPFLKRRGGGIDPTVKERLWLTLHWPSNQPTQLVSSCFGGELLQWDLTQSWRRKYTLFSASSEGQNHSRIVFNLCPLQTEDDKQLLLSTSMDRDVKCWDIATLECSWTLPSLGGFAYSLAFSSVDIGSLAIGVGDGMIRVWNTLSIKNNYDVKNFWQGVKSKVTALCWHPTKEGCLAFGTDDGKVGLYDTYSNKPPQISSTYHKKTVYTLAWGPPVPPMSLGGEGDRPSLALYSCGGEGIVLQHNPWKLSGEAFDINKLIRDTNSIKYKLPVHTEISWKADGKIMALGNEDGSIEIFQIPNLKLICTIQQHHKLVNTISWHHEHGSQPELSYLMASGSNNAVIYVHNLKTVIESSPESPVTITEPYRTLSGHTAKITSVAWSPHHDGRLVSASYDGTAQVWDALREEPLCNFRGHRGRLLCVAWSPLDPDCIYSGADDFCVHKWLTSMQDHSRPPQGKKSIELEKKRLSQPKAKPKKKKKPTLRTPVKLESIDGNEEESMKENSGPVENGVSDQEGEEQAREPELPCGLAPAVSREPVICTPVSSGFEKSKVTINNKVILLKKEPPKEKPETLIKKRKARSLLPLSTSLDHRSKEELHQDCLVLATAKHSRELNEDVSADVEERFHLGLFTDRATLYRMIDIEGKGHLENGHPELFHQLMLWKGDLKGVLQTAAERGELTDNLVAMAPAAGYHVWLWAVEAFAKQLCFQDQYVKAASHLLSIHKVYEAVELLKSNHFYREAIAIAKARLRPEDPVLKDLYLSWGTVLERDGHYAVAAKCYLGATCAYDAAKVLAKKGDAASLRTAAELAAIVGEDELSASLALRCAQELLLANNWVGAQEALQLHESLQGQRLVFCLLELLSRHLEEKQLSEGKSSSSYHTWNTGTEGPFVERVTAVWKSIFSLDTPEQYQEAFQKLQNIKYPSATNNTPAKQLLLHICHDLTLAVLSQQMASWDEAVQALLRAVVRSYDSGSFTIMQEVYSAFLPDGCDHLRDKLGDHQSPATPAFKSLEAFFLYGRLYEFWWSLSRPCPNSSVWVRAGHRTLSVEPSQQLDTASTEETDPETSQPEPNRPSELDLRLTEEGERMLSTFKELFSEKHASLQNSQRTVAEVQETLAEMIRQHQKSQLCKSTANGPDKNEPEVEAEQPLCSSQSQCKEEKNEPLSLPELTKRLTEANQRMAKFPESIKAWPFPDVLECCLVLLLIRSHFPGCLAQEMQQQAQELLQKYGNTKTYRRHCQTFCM"}
{"SMILES": "Cc1ccc(N(O)N=Nc2ccc(S(=O)(=O)Nc3onc(C)c3C)cc2)cc1", "target or system": "α-glucosidase, rat intestine", "assay": "enzyme activity", "conditions": "300 µg/mL, together with: 4-nitrophenyl α-D-glucopyranoside", "endpoint": "inhibition", "result": "42.5%"}
{"SMILES": "CCN1CCN(Cc2cc(NC(=O)c3ccc(C)c(-c4ccc5nc(NC(=O)C6CC6)cn5n4)c3)cc(C(F)(F)F)c2)CC1", "target or system": "JAK2 (Homo sapiens, UniProt O60674, V617F)", "assay": "kinase activity, inhibitor, KiNativ profiling", "system": "SET-2", "conditions": "5 µM", "endpoint": "inhibition", "result": "87.3%"}
{"SMILES": "CC[C@@H]1[C@H](F)C(=O)N[C@@H]1COc1nccc2cc(C(N)=O)c(OC)cc12", "target or system": "IKBKE (Homo sapiens, UniProt Q14164)", "assay": "ATP-site probe binding, ActivX profiling", "system": "THP-1 cell lysate", "conditions": "0.01 mM, Lys1 site", "endpoint": "inhibition", "result": "20.6%"}
{"SMILES": "COc1ccc2c(c1)CN(CCCN1CCN(c3ccccc3OC)CC1)C2=O", "target or system": "HTR1E", "assay": "radioligand binding", "conditions": "concentration not given, together with: [3H]5-HT", "endpoint": "inhibition", "result": "3.5%"}
{"SMILES": "O=C1c2cccc(O)c2C(=O)c2c(O)cc(CO)cc21", "target or system": "HK-2 co-cultured with HepaRG", "assay": "MTT", "conditions": "33.33 µM, 48 h", "how to read": "relative to: untreated control", "endpoint": "viability", "result": "80.5 ± 6.84%"}
{"SMILES": "O[C@@H]1CN(CCCc2ccccc2)CC[C@H]1N1CCCCCC1", "target or system": "Luciferin 4-monooxygenase", "assay": "luciferase luminescence, inhibitor", "system": "cell-free", "conditions": "50 µM, counter-screen", "endpoint": "inhibition", "result": "2.64%"}
{"SMILES": "O=c1c(O[C@@H]2O[C@H](CO)[C@H](O)[C@H](O)[C@H]2O)c(-c2ccc(O)c(O)c2)oc2cc(O)cc(O)c12", "target or system": "Adhesin FmlH, lectin domain (Escherichia coli, UniProt Q1RBS0)", "assay": "binding to desialylated mucin, ELISA competition", "system": "UPEC UTI89", "conditions": "100 µM", "endpoint": "inhibition", "result": "14.4 ± 6.8%"}
{"SMILES": "COc1c(O[C@@H]2O[C@H](CO)[C@@H](O)[C@H](O)[C@H]2O)c(C)cc2c1C(=O)c1c(O)cccc1C2=O", "target or system": "HK-2 co-cultured with HepaRG", "assay": "MTT", "conditions": "266.67 µM, 48 h", "how to read": "relative to: untreated control", "endpoint": "cell viability", "result": "44.1 ± 2.22%"}
{"SMILES": "CCN(O)N=Nc1ccc(S(=O)(=O)Nc2nccs2)cc1", "target or system": "α-glucosidase, rat intestine", "assay": "enzyme activity", "conditions": "20 µg/mL, together with: 4-nitrophenyl α-D-glucopyranoside", "endpoint": "inhibition", "result": "12.5 ± 0.01%"}
{"SMILES": "CN1CCN(c2cc(-c3ccncc3)c(-c3ccc4ccccc4c3)nn2)CC1", "target or system": "FSHR (Homo sapiens, UniProt P23945)", "assay": "antagonist, FLIPR", "conditions": "10 µM", "endpoint": "inhibition", "result": "19.6%"}
{"SMILES": "Cn1cc(-c2ccc(-c3cncc(Cl)c3N3CCC4(CCNC4=O)CC3)cc2)cn1", "target or system": "COLO 205", "assay": "gene expression, microarray, refers to: LSS mRNA", "conditions": "concentration not given, 2 h", "how to read": "relative to: untreated cells", "endpoint": "log2 fold change", "result": -2.15}
{"SMILES": "CC(C)C[C@H](NC(=O)C[C@H](O)[C@H](CC(C)C)NC(=O)[C@H](Cc1c[nH]cn1)NC(=O)CNC(=O)[C@@H](NC(=O)[C@H](C)NC(=O)[C@H](Cc1c[nH]c2ccccc12)NC(=O)[C@H](CCC(N)=O)NC(=O)[C@@H](Cc1ccccc1)NC(=O)COCCOCCNC(=O)CCC(C(=O)O)N1CCN(CC(=O)O)CCN(CC(=O)O)CCN(CC(=O)O)CC1)C(C)C)C(N)=O (stereo partly shown) [lutetium-177 labelled]", "system": "female BALB/c nu/nu mice, skin", "conditions": "intravenous, 100 pmol, 24 h, together with: PA 300 µg", "endpoint": "tissue uptake", "result": "0.05 ± 0.04 %ID/g"}
{"SMILES": "O=C(NO)c1ccc(CN2CCCCc3ccccc32)c(F)c1", "target or system": "HTR1E", "assay": "radioligand binding, PDSP radioligand binding", "conditions": "10 µM", "endpoint": "inhibition", "result": "-5.05%"}
{"SMILES": "O=C1C=C2CC3(O)COc4c(ccc(O)c4O)C3=C2C=C1O (stereo not shown)", "target or system": "Luciferin 4-monooxygenase", "assay": "luciferase luminescence, inhibitor", "system": "cell-free", "conditions": "50 µM, counter-screen", "endpoint": "inhibition", "result": "40.9%"}
{"SMILES": "O=C(COP(=O)(O)O)[C@@H](O)[C@H](O)[C@H](O)COP(=O)(O)O", "target or system": "Gem-associated protein 5 (Homo sapiens, UniProt Q8TEQ6)", "assay": "thermal proteome profiling, refers to: GEMIN5", "system": "HepG2 cell lysate", "conditions": "concentration not given, 57 over 37 °C, mean", "how to read": "relative to: compound over control", "endpoint": "thermal stability ratio", "result": 0.508}
{"SMILES": "CN(C(=O)n1cnc(-c2ccc[n+]([O-])c2)c1)C1CCCCC1", "target or system": "GABRA1/GABRG2, benzodiazepine site (Bos taurus, UniProt P08219+P22300)", "conditions": "10 µM", "endpoint": "inhibition", "result": "-9.61%"}
{"SMILES": "Cc1ccc(N(O)N=Nc2ccc(S(=O)(=O)Nc3cc(C)on3)cc2)cc1", "target or system": "α-glucosidase, rat intestine", "assay": "enzyme activity", "conditions": "20 µg/mL, together with: 4-nitrophenyl α-D-glucopyranoside", "endpoint": "inhibition", "result": "12.5 ± 0.59%"}
{"SMILES": "O=C(CN1CCO[C@H](COc2cccnc2)C1)N1CCc2ccccc21", "target or system": "HTR1E", "assay": "radioligand binding", "conditions": "concentration not given, together with: [3H]5-HT", "endpoint": "inhibition", "result": "-4.4%"}
{"SMILES": "COc1ccc(S(=O)(=O)N(CC(=O)O)C(=O)c2ccc(C(=O)N(CC(=O)O)S(=O)(=O)c3ccc(OC)cc3)c3ccccc23)cc1", "target or system": "Kelch-like ECH-associated protein 1, Kelch domain (KEAP1, Homo sapiens, UniProt Q14145)", "assay": "binding, fluorescence polarization competition", "conditions": "50 µM", "endpoint": "inhibition", "result": "no inhibition"}
{"SMILES": "O=C(CN1CCO[C@H](COc2ccccc2)C1)N1CCc2ccccc21", "target or system": "HTR1E", "assay": "radioligand binding", "conditions": "concentration not given, together with: [3H]5-HT", "endpoint": "inhibition", "result": "-4.9%"}
{"SMILES": "CSc1nccc(-c2cccc(-c3cc[nH]n3)c2)n1", "target or system": "Luciferin 4-monooxygenase", "assay": "luciferase luminescence, inhibitor", "system": "cell-free", "conditions": "50 µM, counter-screen", "endpoint": "inhibition", "result": "68.5%"}
{"SMILES": "CN(O)N=Nc1ccc(S(=O)(=O)Nc2nccs2)cc1", "target or system": "α-glucosidase, rat intestine", "assay": "enzyme activity", "conditions": "180 µg/mL, together with: 4-nitrophenyl α-D-glucopyranoside", "endpoint": "inhibition", "result": "40 ± 0.29%"}
{"SMILES": "CO[C@H]1/C=C/O[C@@]2(C)Oc3c(C)c(O)c4c(O)c(c(/C=N/N5CCN(C)CC5)c(O)c4c3C2=O)NC(=O)/C(C)=C\\C=C\\[C@H](C)[C@H](O)[C@@H](C)[C@@H](O)[C@@H](C)[C@H](OC(C)=O)[C@@H]1C", "target or system": "Palmitoyl-protein thioesterase 1 (Homo sapiens, UniProt P50897)", "assay": "Spectrum Collection screen", "conditions": "concentration not given, together with: substrate 20 µM", "endpoint": "inhibition", "result": "70.1%"}
{"SMILES": "O=S(=O)(Nc1nccs1)c1ccc(N=NN(O)c2ccccc2)cc1", "target or system": "α-glucosidase, rat intestine", "assay": "enzyme activity", "conditions": "120 µg/mL, together with: 4-nitrophenyl α-D-glucopyranoside", "endpoint": "inhibition", "result": "22.5 ± 1.38%"}
{"SMILES": "COc1ccc(F)cc1C(=O)NCc1ccc(-c2nn([C@@H](C)C(F)(F)F)c(N)c2C(N)=O)cc1", "target or system": "OXSR1 (Homo sapiens, UniProt O95747)", "assay": "target engagement, competitive chemoproteomics", "system": "human PBMCs", "conditions": "0.01 µM", "endpoint": "inhibition", "result": "28.2%"}
{"note": "For quick reference, copied from above:"}
{"SMILES": "COc1ccc(F)cc1C(=O)NCc1ccc(-c2nn([C@@H](C)C(F)(F)F)c(N)c2C(N)=O)cc1", "target or system": "OXSR1 (Homo sapiens, UniProt O95747)", "assay": "target engagement, competitive chemoproteomics", "system": "human PBMCs", "conditions": "0.01 µM", "endpoint": "inhibition", "result": "28.2%"}
{"SMILES": "COc1ccc2c(c1)CN(CCCN1CCN(c3ccccc3OC)CC1)C2=O", "target or system": "HTR1E", "assay": "radioligand binding", "conditions": "concentration not given, together with: [3H]5-HT", "endpoint": "inhibition", "result": "3.5%"}
